Published values pooled from the literature.
Compare with care: the assays were run in different laboratories. Several values in a cell are separate wells, animals, samples, runs or records. ± marks the error that the study gave.

O=Cc1cn(Cc2cccc(Cl)c2)c2ccccc12
liver toxicity severity score (male F344 rat, liver; oral, 150 mg/kg/day, 2 days, scale unremarkable to marked; direction not given): 0

CC(C)n1c(/C=C/C(O)CC(O)CC(=O)O)c(-c2ccc(F)cc2)c2ccccc21 (stereo not drawn)
Vss/F (human; oral, 20 mg, alone, control phase): 280 ± 121 L

COc1cccc(Oc2ccccc2NC(=O)CNC(=O)c2cccc3ccccc23)c1
blood urea nitrogen (esterase-deficient SCID mice, male; oral, 40 mg/kg/day, 14 days, toxicity study): 32 mg/dL and 37 mg/dL and 35 mg/dL

CCCCCCCCCCCCOS(=O)(=O)[O-].[Na+]
ATP level (bovine liver slices; 50 µg/mL, 6 h; reference: control): decreased

CC(=O)c1c(C)c2cnc(Nc3ccc(C4CCN(CCS(C)(=O)=O)CC4)cn3)nc2n(C2CCCC2)c1=O
clearance (human, dose-escalation trial, plasma; oral, 25 mg twice daily, day 21, multiple doses): 887 mL/min

COc1ccc(-c2[nH]c3c(OP(=O)([O-])[O-])c(OC)ccc3c2C(=O)c2cc(OC)c(OC)c(OC)c2)cc1OC.[Na+].[Na+]
tolerability (outcome: not toxic; mouse, BALB/c, 4T1-Luc tumour; intraperitoneal, 20 mg/kg): not toxic

Cc1n[nH]c(C)c1CSCc1ccccc1
logP (reversed-phase HPLC; acetonitrile-water): 1.48 ± 0.4

CN1CCN(S(=O)(=O)c2cc([N+](=O)[O-])ccc2N(CCOS(C)(=O)=O)CCOS(C)(=O)=O)CC1
ALT (naive NOD/SCID mice, pooled blood; intraperitoneal, 18.8 mg/kg, week 4): 32 U/L

CCCCCCCCCCCCCCCC(=O)N[C@@H](CCC(=O)NCCCC[C@H](NC(=O)[C@H](CC(=O)O)NC(=O)[C@H](CO)NC(=O)[C@@H](NC(=O)[C@H](Cc1ccccc1)NC(=O)[C@@H](NC(=O)CNC(=O)[C@H](CCC(N)=O)NC(=O)[C@H](CO)NC(=O)[C@@H](N)Cc1c[nH]cn1)[C@@H](C)O)[C@@H](C)O)C(=O)N[C@@H](CO)C(=O)N[C@@H](CCC(=O)O)C(=O)N[C@@H](Cc1ccc(O)cc1)C(=O)N[C@@H](CC(C)C)C(=O)N[C@@H](CC(=O)O)C(=O)N[C@@H](CO)C(=O)N[C@@H](CCC(=O)O)C(=O)N[C@@H](CCCNC(=N)N)C(=O)N[C@@H](C)C(=O)N[C@@H](CCCNC(=N)N)C(=O)N[C@@H](CC(=O)O)C(=O)N[C@@H](Cc1ccccc1)C(=O)N[C@H](C(=O)N[C@@H](C)C(=O)N[C@@H](Cc1c[nH]c2ccccc12)C(=O)N[C@@H](CC(C)C)C(=O)N[C@@H](CCC(=O)O)C(=O)N[C@@H](C)C(=O)NCC(=O)NCC(=O)O)C(C)C)C(=O)O
treatment-related adverse events (measured: Dizziness; humans all renal groups; subcutaneous, 100 µg single dose): 2.7%

Cl.Cn1c(=O)n(CCCCN2CCC3(CC2)OCc2ccccc23)c2ccccc21
C0 (rat, male, brain; iv, 10 mg/kg, 0.5 h): 464 ± 49.6 ng/g

O=C1Nc2cc3[nH]nc(-c4ccncc4)c3cc2CN1Cc1ccccc1
patients with subretinal fluid (CTCAE v4.03; human, relapsed or refractory advanced solid tumours; intravenous, 3.6 mg/kg, pooled schedules): 0%

Oc1ccc(Cl)c(-c2ccc(Cl)cc2Cl)c1Cl
enantiomeric fraction (enantioselective gas chromatography; racemized sample; column temperature 170 °C): 0.5

C=CC(=O)N1CC[C@H](n2nc(C#Cc3cc(OC)cc(OC)c3)c3c(N)ncnc32)C1
adverse drug reaction incidence (patients with advanced solid tumours; oral, dose not given, Dysgeusia, any grade, QD, with: sevelamer hydrochloride): 18.2%

OC[C@H]1OC(O)[C@H]([18F])[C@@H](O)[C@@H]1O (stereo partly drawn)
SUV (PET; Sprague-Dawley rat, olfactory bulb; intravenous, 2 h): 5.3

Cc1ccc(F)c2cc(C(=O)N[C@@H]3CCC[C@H](N4CC[C@H](N(C)S(C)(=O)=O)C4)C3)[nH]c12
oral bioavailability (CD1 mouse; oral, 100 mg/kg): 63.4%

O=C(Nc1ccccc1)C1CCN(C(=O)Oc2cccnc2)CC1
change in Incompetent-Proficient score (Bond-Lader VAS; healthy women; oral, 100 mg; reference: pre-dose baseline, direction not given): 14

COc1cc2c(Oc3ccc4[nH]c(C)cc4c3F)ccnc2cc1OCC1(N)CC1
sinus tachycardia incidence (paediatric refractory sarcoma patients; 10 mg): 0%

CN1CC[C@@H](c2c(O)cc(O)c3c(=O)cc(-c4ccc(C(F)(F)F)cc4Cl)oc23)[C@@H]1CO
patients with adverse event (measured: Fatigue; relapsed or refractory haematological malignancies; oral, dose not given, all arms): 22.5%

C=CC(=O)Nc1cc(Nc2nccc(Nc3cc(Cl)c(F)cc3C(C)(C)O)n2)c(OC)cc1N1CC[C@@H](N(C)C)C1
patients with dizziness (human patients; oral, 100 mg, treatment-emergent adverse events): 22.2%

C[C@]1(CO)Cc2ncn(-c3ccc(C#N)c(Cl)c3)c2C(=O)O1
half-life (human, plasma; 5 mg single dose, geometric mean): 5.1 h

COc1ccnc(C(=O)N[C@H]2COC(=O)[C@H](Cc3ccccc3)[C@@H](OC(=O)C(C)C)[C@H](C)OC2=O)c1OCOC(=O)C(C)C
DT50 (aerobic dark soil incubation; clay soil; 20 °C, modelling endpoint): 2.65 days

CC[C@H](C)[C@@H]1NC(=O)[C@@H]2CSSC[C@H](NC(=O)[C@H](CCCNC(=N)N)NC(=O)[C@@H]3CSSC[C@H](NC1=O)C(=O)N[C@@H]([C@@H](C)O)C(=O)N[C@@H](CCCNC(=N)N)C(=O)NCC(=O)N[C@@H](Cc1ccccc1)C(=O)N3)C(=O)N[C@@H](CC(C)C)C(=O)N[C@H]1CSSC[C@H](NC(=O)[C@H](C(C)C)NC(=O)CNC(=O)[C@H](CCCNC(=N)N)NC(=O)[C@H](CCCNC(=N)N)NC1=O)C(=O)N[C@@H](CCCNC(=N)N)C(=O)N2
lung thrombosis score (cynomolgus monkey, female, lung; 5 mg/kg, histopathology, multifocal; direction not given): 1 to 2

COc1ccc(-c2c(-c3ccc(C#N)c(F)c3)nc(N3CCC(N)CC3)n(C)c2=O)cc1F
treatment-related adverse event incidence (measured: Anemia; neuroendocrine neoplasm patients; oral, 60 mg, any grade, dose expansion): 25%

C[C@]1(O)C[C@@](N)(c2ccc(-c3nc4n(c3-c3ccccc3)COc3ccncc3-4)cc2)C1
patients with grade ≥3 Rash TEAE (human, advanced or metastatic solid tumours; intermittent, dose escalation total): 14.3%

C[C@@H]1OC(=O)NN=C1c1ccc(-c2ccc(F)cc2)c(C(F)(F)F)c1
patients with adverse event (phase I trial, measured: abdominal distension all grades; human patients; 5 mg loading then 0.25 mg daily): 0%

Cn1cncc1-c1c(F)cncc1NC(=O)c1c(N)nn2cc(F)cnc12
grade ≥3 white blood cells decreased (human patients; oral, 150 mg twice daily, 4 days per 3 days): 25%

COc1cc2c(OC3CCOC3)c3c(c(-c4ccc5c(c4)OCO5)c2cc1OC)C(=O)OC3 (stereo not drawn)
CL/F (mouse; oral): 0.135 L/h

Cc1ccc2c(c1)C(=O)C1(O)CCN(c3ccccc3)C1=N2 (stereo not drawn)
reduction from baseline (cardiac output, echocardiography; rat; IV infusion, 0.5 mg/kg): ~80%

[O-][S+]1CCc2nc(N3CCC(c4ncc(Cl)cn4)CC3)nc(NC3(CO)CCC3)c21 (stereo not drawn)
subjects with adverse event (measured: gastrointestinal disorders; healthy male subjects; dose not given, multiple rising dose, total): 18.8%

COc1ncccc1-c1cnn2ccc(N3CCN(C(=O)OC(C)C)CC3)nc12
concentration (rat, brain; oral, 30 mg/kg, 1.5 h, with: saline): 5.3 µM

NCCCC[C@@H]1NC(=O)[C@@H](Cc2c[nH]c3ccccc23)NC(=O)[C@H](c2ccccc2)NC(=O)[C@@H]2C[C@@H](OC(=O)NCCN)CN2C(=O)[C@H](Cc2ccccc2)NC(=O)[C@H](Cc2ccc(OCc3ccccc3)cc2)NC1=O
QTcI change from baseline (healthy volunteers; subcutaneous, 600 µg twice daily, day 5, 0.25 h): -3.9 ms

CC(C)Nc1ccnc(Nc2cccc(-c3cccnc3)c2)n1
blood chemistry (measured: BUN; mouse, blood; intraperitoneal, 3 mg/kg): 16.8 mg/dL

CC(C)C[C@H](NC(=O)[C@H](CCCCN)NC(=O)OCC1c2ccccc2-c2ccccc21)C(=O)N[C@H](C(=O)N[C@@H](Cc1ccccc1)C(=O)N[C@@H](Cc1ccccc1)C(=O)N[C@@H](CCCCN)C(=O)NCC(=O)N[C@@H](Cc1ccccc1)C(=O)N[C@@H](C)C(=O)N[C@@H](Cc1c[nH]c2ccccc12)C(=O)N[C@@H](CC(N)=O)C(=O)N[C@H](C(=O)N[C@H]1CSSC[C@@H](C(=O)N[C@@H](Cc2c[nH]cn2)C(=O)N[C@@H](CCCNC(=N)N)C(=O)N[C@@H](CCCNC(=N)N)C(=O)N[C@@H](C)C(=O)N[C@@H](CC(N)=O)C(N)=O)NC(=O)[C@H](C(C)C)NC(=O)[C@H](CCCNC(=N)N)NC(=O)[C@H](C(C)C)NC(=O)CNC(=O)[C@H](CC(N)=O)NC(=O)[C@H](CCCNC(=N)N)NC(=O)[C@H](Cc2ccc(O)cc2)NC(=O)[C@H](C(C)C)NC1=O)C(C)C)C(C)C
remaining peptide (HPLC; mouse mammary gland homogenate; 2560 µM, 10.00 h, 37 °C, 50 mg/mL tissue): 61.3% and 66.1% and 63.2%

Clc1ccc(Cl)c(-c2cc(Cl)ccc2Cl)c1
concentration (Sprague Dawley rat female, serum; intraperitoneal, 10 mg/kg, 3 weeks): 4 ng/g

COc1ccc2nc3cc(Cl)ccc3c(Nc3cc(CN4CCCC4)c(O)c(CN4CCCC4)c3)c2n1
urea level (mouse, blood; intraperitoneal, 28 mg/kg): 2.71 µmol/L

CO[C@H]1C[C@@H]2CC[C@@H](C)[C@@](O)(O2)C(=O)C(=O)N2CCCC[C@H]2C(=O)O[C@H]([C@H](C)C[C@@H]2CC[C@@H](OC(=O)NCCOCCOCCOCCOCCOCCOCCOCCOCCC(=O)N3CCc4cc(Cn5nc(-c6ccc7oc(N)nc7c6)c6c(N)ncnc65)ccc4C3)[C@H](OC)C2)C[C@@H](O)[C@H](C)/C=C(\C)[C@@H](O)[C@@H](OC)C(=O)[C@H](C)C[C@H](C)/C=C/C=C/C=C/1C
maculopapular rash TEAE incidence (dose-escalation trial; patients with advanced solid tumours; intravenous, 1.6 mg/3 mg weekly, grade ≥3): 0%

O=S(=O)(Nc1ccccc1)c1ccc(NC(=S)Nc2ccccc2)cc1
mean corpuscular haemoglobin concentration (mouse, male, blood; oral, 80 mg/kg daily, 14 days): 31.4 g/dL

S=c1oc(-c2ccccc2)nn1CN1CCN(Cc2ccccc2)CC1
serum creatinine (Wistar rat female; oral, 500 mg/kg, acute toxicity OECD 423): 0.62 ± 0.07 mg/dL

C[C@@H](NC(=O)N1C(=O)[C@H](Cc2ccnc(N)c2)[C@H]1C(=O)O)C1CCCCC1
incidence of urine ketone body positive (healthy adult Chinese volunteers; continuous intravenous infusion, 1.5 mg/kg/h, 5-day infusion, CTCAE 5.0 grading): 0%

Some of these lines once more:
O=C(Nc1ccccc1)C1CCN(C(=O)Oc2cccnc2)CC1
change in Incompetent-Proficient score (Bond-Lader VAS; healthy women; oral, 100 mg; reference: pre-dose baseline, direction not given): 14

COc1cc2c(Oc3ccc4[nH]c(C)cc4c3F)ccnc2cc1OCC1(N)CC1
sinus tachycardia incidence (paediatric refractory sarcoma patients; 10 mg): 0%

COc1ncccc1-c1cnn2ccc(N3CCN(C(=O)OC(C)C)CC3)nc12
concentration (rat, brain; oral, 30 mg/kg, 1.5 h, with: saline): 5.3 µM

S=c1oc(-c2ccccc2)nn1CN1CCN(Cc2ccccc2)CC1
serum creatinine (Wistar rat female; oral, 500 mg/kg, acute toxicity OECD 423): 0.62 ± 0.07 mg/dL

CC[C@H](C)[C@@H]1NC(=O)[C@@H]2CSSC[C@H](NC(=O)[C@H](CCCNC(=N)N)NC(=O)[C@@H]3CSSC[C@H](NC1=O)C(=O)N[C@@H]([C@@H](C)O)C(=O)N[C@@H](CCCNC(=N)N)C(=O)NCC(=O)N[C@@H](Cc1ccccc1)C(=O)N3)C(=O)N[C@@H](CC(C)C)C(=O)N[C@H]1CSSC[C@H](NC(=O)[C@H](C(C)C)NC(=O)CNC(=O)[C@H](CCCNC(=N)N)NC(=O)[C@H](CCCNC(=N)N)NC1=O)C(=O)N[C@@H](CCCNC(=N)N)C(=O)N2
lung thrombosis score (cynomolgus monkey, female, lung; 5 mg/kg, histopathology, multifocal; direction not given): 1 to 2
